Experimental data gathered from unrelated publications.
Protocols differ between the studies behind these lines. Numbers after ± are the reported error.
Technique: steady-state kinetics
B1: enzyme E217L/L163H/N249W (Thermobifida fusca, UniProt Q47RK4); chain MTDVYILDAVRTPFGRYGGALSGIRPDDLAAHVLRALAERSPGLDPAAVDDVFFGDANGAGEDNRNVARMAALLAGWPTSVPGVTLNRLCGSGMESVIAANRAIAVGDASLAVAGGVESMSRAPWVLPKPAQGFPTGHETLYSTTLGWRMVNPAMPEQWTVSHGESTEQVAATYGISRAEQDAFALRSHERAARAWAEGVFDAEITQIPGAELERDLSIRETSAEKLAALKPAFRPDGTITAGNASPLWDGAAALLIGDAAAAERVGREPLARIVSRGVAAVDPDVFGIGPVQAAEIALRRAGIGWDDLSVVELNEAFAAQSLACLKLWPDLDPEIVNPNGGAIAIGHPLGASGARIVGTLAHELHRRGGGWGLAAICIGVGQGLAVVLHR
B2: CPN1 (Homo sapiens, UniProt P15169); chain VTFRHHRYDDLVRTLYKVQNECPGITRVYSIGRSVEGRHLYVLEFSDHPGIHEPLEPEVKYVGNMHGNEALGRELMLQLSEFLCEEFRNRNQRIVQLIQDTRIHILPSMNPDGYEVAAAQGPNKPGYLVGRNNANGVDLNRNFPDLNTYIYYNEKYGGPNHHLPLPDNWKSQVEPETRAVIRWMHSFNFVLSANLHGGAVVANYPYDKSFEHRVRGVRRTASTPTPDDKLFQKLAKVYSYAHGWMFQGWNCGDYFPDGITNGASWYSLSKGMQDFNYLHTNCFEITLELSCDKFPPEEELQREWLGNREALIQFLEQVHQGIKGMVLDENYNNLANAVISVSGINHDVTSGDHGDYFRLLLPGIYTVSATAPGYDPETVTVTVGPAEPTLVNFHLKRSIPQVSPVRRAPSRRHGVRAKVQPQARKKEMEMRQLQRGPA
B3: DAO1 (Trigonopsis variabilis, UniProt Q99042); chain MAKIVVIGAGVAGLTTALQLLRKGHEVTIVSEFTPGDLSIGYTSPWAGANWLTFYDGGKLADYDAVSYPILRELARSSPEAGIRLISQRSHVLKRDLPKLEVAMSAICQRNPWFKNTVDSFEIIEDRSRIVHDDVAYLVEFRSVCIHTGVYLNWLMSQCLSLGATVVKRRVNHIKDANLLHSSGSRPDVIVNCSGLFARFLGGVEDKKMYPIRGQVVLVRNSLPFMASFSSTPEKENEDEALYIMTRFDGTSIIGGCFQPNNWSSEPDPSLTHRILSRALDRFPELTKDGPLDIVRECVGHRPGREGGPRVELEKIPGVGFVVHNYGAAGAGYQSSYGMADEAVSYVERALTRPNL
B4: enzyme L163H/N249W (Thermobifida fusca, UniProt Q47RK4); chain MTDVYILDAVRTPFGRYGGALSGIRPDDLAAHVLRALAERSPGLDPAAVDDVFFGDANGAGEDNRNVARMAALLAGWPTSVPGVTLNRLCGSGMESVIAANRAIAVGDASLAVAGGVESMSRAPWVLPKPAQGFPTGHETLYSTTLGWRMVNPAMPEQWTVSHGESTEQVAATYGISRAEQDAFALRSHERAARAWAEGVFDAEITQIPGAELERDESIRETSAEKLAALKPAFRPDGTITAGNASPLWDGAAALLIGDAAAAERVGREPLARIVSRGVAAVDPDVFGIGPVQAAEIALRRAGIGWDDLSVVELNEAFAAQSLACLKLWPDLDPEIVNPNGGAIAIGHPLGASGARIVGTLAHELHRRGGGWGLAAICIGVGQGLAVVLHR
B5: enzyme (Allochromatium vinosum, UniProt P45370); chain MFPIDIRPDKLTQEMLDYSRKLGQGMENLLNAEAIDTGVSPKQAVYSEDKLVLYRYDRPEGAPEAQPVPLLIVYALVNRPYMTDIQEDRSTIKGLLATGQDVYLIDWGYPDQADRALTLDDYINGYIDRCVDYLREAHGVDKVNLLGICQGGAFSLMYSALHPDKVRNLVTMVTPVDFKTPDNLLSAWVQNVDIDLAVDTMGNIPGELLNWTFLSLKPFSLTGQKYVNMVDLLDDPDKVKNFLRMEKWIFDSPDQAGETFRQFIKDFYQNNGFLNGGVVLGGQEVDLKDITCPVLNIFALQDHLVPPDASRALKGLTSSPDYTELAFPGGHIGIYVSGKAQKEVTPAIGKWLNER
B6: protein (Rhodopseudomonas palustris, UniProt Q6N3R9); chain MSNVRVLATDLAFPEGPVVMPDGSVVLVEIRAQQLTRVWPDGRKEVVAKVPGGPNGAALGPDGKMYICNNGGFGWFPSRGTMMPGAPAPHEYIGGSIQRVDLQSGEVETLFDKCGEHPLKGPNDLVFDKHGGLWFTDLGKRRARDMDVGAAYYIKPGMTEITEQVFGTLPLNGIGLSPDEATMYAAETPTGRLWAFDLSGPGEVKPRDVIYRGEKGKPICGLGGYQMFDSLAVEASGNVCVATLVSGCISVIAPDGTLVEQVPTGDRVTTNIAFGGPDLKTAYITLSGKGELIAMDWSRPGLPLNFLNK
B7: sbnA (Staphylococcus aureus, UniProt A6QDA0); chain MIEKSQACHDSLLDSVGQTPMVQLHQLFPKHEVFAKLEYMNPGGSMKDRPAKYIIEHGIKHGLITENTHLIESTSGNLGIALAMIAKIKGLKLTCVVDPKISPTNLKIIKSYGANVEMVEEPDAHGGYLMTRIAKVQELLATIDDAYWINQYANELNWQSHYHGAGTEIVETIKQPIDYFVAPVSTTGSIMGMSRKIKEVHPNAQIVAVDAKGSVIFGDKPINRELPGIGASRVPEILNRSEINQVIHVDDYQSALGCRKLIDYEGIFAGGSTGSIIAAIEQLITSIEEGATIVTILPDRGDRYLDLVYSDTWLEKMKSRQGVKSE
B8: enzyme N249W (Thermobifida fusca, UniProt Q47RK4); chain MTDVYILDAVRTPFGRYGGALSGIRPDDLAAHVLRALAERSPGLDPAAVDDVFFGDANGAGEDNRNVARMAALLAGWPTSVPGVTLNRLCGSGMESVIAANRAIAVGDASLAVAGGVESMSRAPWVLPKPAQGFPTGHETLYSTTLGWRMVNPAMPEQWTVSLGESTEQVAATYGISRAEQDAFALRSHERAARAWAEGVFDAEITQIPGAELERDESIRETSAEKLAALKPAFRPDGTITAGNASPLWDGAAALLIGDAAAAERVGREPLARIVSRGVAAVDPDVFGIGPVQAAEIALRRAGIGWDDLSVVELNEAFAAQSLACLKLWPDLDPEIVNPNGGAIAIGHPLGASGARIVGTLAHELHRRGGGWGLAAICIGVGQGLAVVLHR
Sequence of UniProt G3XD23 (whole entry, looked up): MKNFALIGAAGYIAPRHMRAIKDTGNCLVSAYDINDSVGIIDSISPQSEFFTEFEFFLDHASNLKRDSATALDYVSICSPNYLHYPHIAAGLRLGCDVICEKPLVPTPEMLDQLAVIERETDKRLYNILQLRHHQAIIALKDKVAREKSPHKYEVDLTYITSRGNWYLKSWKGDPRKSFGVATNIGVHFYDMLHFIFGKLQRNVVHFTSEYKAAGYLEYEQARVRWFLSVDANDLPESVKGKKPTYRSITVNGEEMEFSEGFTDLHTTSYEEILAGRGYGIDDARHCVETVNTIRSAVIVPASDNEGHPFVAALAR
Sequence of UniProt P33378 (whole entry, looked up): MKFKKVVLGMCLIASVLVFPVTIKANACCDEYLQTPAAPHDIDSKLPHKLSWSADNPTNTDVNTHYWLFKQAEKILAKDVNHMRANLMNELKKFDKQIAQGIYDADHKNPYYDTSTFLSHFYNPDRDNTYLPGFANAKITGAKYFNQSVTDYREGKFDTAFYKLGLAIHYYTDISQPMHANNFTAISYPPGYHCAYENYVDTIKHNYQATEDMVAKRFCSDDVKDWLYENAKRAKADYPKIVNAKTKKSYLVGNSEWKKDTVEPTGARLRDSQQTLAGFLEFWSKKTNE
Sequence of UniProt Q6XEC0 (whole entry, looked up): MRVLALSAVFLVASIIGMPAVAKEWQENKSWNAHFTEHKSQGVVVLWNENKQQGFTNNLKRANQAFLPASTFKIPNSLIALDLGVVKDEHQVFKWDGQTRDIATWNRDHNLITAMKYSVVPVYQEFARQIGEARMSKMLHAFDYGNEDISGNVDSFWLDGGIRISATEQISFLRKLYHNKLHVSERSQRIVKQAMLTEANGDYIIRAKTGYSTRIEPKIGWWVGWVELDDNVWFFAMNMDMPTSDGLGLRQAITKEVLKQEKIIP

With `B1 (enzyme E217L/L163H/N249W)` the kcat/Km was 16.7 M⁻¹ s⁻¹ (CC(C)(COP(=O)(O)OP(=O)(O)OC[C@H]1O[C@@H](n2cnc3c(N)ncnc32)[C@H](O)[C@@H]1OP(=O)(O)O)[C@@H](O)C(=O)NCCC(=O)NCCSC(=O)CCC(=O)O; pH 7.4, 37 °C).
With `B2 (CPN1)` the kcat/Km was 470000 M⁻¹ s⁻¹ (C[C@H](NC(=O)[C@H](Cc1ccccc1)NC(=O)[C@H](CCC(N)=O)NC(=O)CNC(=O)[C@@H]1CCCN1C(=O)[C@H](Cc1ccccc1)NC(=O)[C@@H](N)Cc1ccc(O)cc1)C(=O)N[C@@H](Cc1ccccc1)C(=O)N[C@@H](CO)C(=O)N[C@@H](CCCCN)C(=O)O; 37 °C).
For `B3 (DAO1)`, the kcat/Km was 1000 M⁻¹ s⁻¹ (O=C1C(Cl)=CC(=Nc2ccc(O)cc2)C=C1Cl; pH 8, 22 °C, varied electron acceptor, apparent, added: D-methionine 200 mM).
`B4 (enzyme L163H/N249W)` gave a kcat/Km of 5.67 M⁻¹ s⁻¹ (CC(C)(COP(=O)(O)OP(=O)(O)OC[C@H]1O[C@@H](n2cnc3c(N)ncnc32)[C@H](O)[C@@H]1OP(=O)(O)O)[C@@H](O)C(=O)NCCC(=O)NCCSC(=O)CCC(=O)O; pH 7.4, 37 °C).
With `B5 (enzyme)` the kcat/Km was 286000 M⁻¹ s⁻¹ (CC(C)(COP(=O)(O)OP(=O)(O)OC[C@H]1O[C@@H](n2cnc3c(N)ncnc32)[C@H](O)[C@@H]1OP(=O)(O)O)[C@@H](O)C(=O)NCCC(=O)NCCSC(=O)C[C@H](O)CN=[N+]=[N-]; pH 7.8, 30 °C).
The kcat/Km of `OXA-48 (Klebsiella pneumoniae, UniProt Q6XEC0)` is reported as 4700 M⁻¹ s⁻¹ (CO/N=C(\C(=O)N[C@@H]1C(=O)N2C(C(=O)O)=C(COC(C)=O)CS[C@H]12)c1csc(N)n1; pH 7.2, 30 °C).
`B6 (protein)` gave a kcat/Km of 134 M⁻¹ s⁻¹ (CCCCCCCCOC(C)=O; pH 8.3, NaCl 150 mM, no saturation, added: CaCl2 1 mM).
`plcB (Listeria monocytogenes, UniProt P33378)` has a kcat/Km of 180 ± 20 M⁻¹ s⁻¹ (CCCC(=O)OC[C@H](COP(=O)([O-])OCC[N+](C)(C)C)OC(=O)CCC; pH 6, 37 °C).
The kcat/Km of `pyc R472S (Rhizobium etli)` is reported as 2000 M⁻¹ s⁻¹ (Nc1ncnc2c1ncn2[C@@H]1O[C@H](COP(=O)(O)OP(=O)(O)OP(=O)(O)O)[C@@H](O)[C@H]1O; pH 7.8, 30 °C).
The kcat/Km of `Lxyl-p1-1 (Lentinula edodes, UniProt G8GLN9)` is reported as 3720 ± 60 M⁻¹ s⁻¹ ([H][C@]12[C@H](OC(=O)c3ccccc3)[C@]3(O)C[C@H](OC(=O)[C@H](O)[C@@H](NC(=O)c4ccccc4)c4ccccc4)C(C)=C([C@@H](O)C(=O)[C@]1(C)[C@@H](O[C@@H]1OC[C@@H](O)[C@H](O)[C@H]1O)C[C@@]1([H])OC[C@@]21OC(C)=O)C3(C)C).
`B7 (sbnA)` gave a kcat/Km of 1100 ± 78 M⁻¹ s⁻¹ (N[C@@H](CCC(=O)O)C(=O)O; pH 8, 25 °C, added: OPS).
`MilB F17Y (Streptomyces rimofaciens)` gave a kcat/Km of 0.046 M⁻¹ s⁻¹ (Nc1ccn([C@@H]2O[C@H](COP(=O)(O)O)[C@@H](O)[C@H]2O)c(=O)n1; pH 7.5, 37 °C).
With `wbpB (Pseudomonas aeruginosa, UniProt G3XD23)` the kcat/Km was 2.2e+07 M⁻¹ s⁻¹ (CC(=O)N[C@H]1[C@@H](OP(=O)(O)OP(=O)(O)OC[C@H]2O[C@@H](n3ccc(=O)[nH]c3=O)[C@H](O)[C@@H]2O)O[C@H](C(=O)O)[C@@H](O)[C@@H]1O; pH 8.5, 25 °C).
The kcat/Km of `ω-transaminase A60V/E38Q/F86L/I154V/M128F/P9A/R417L/S87N/W58M (Pseudomonas jessenii)` is reported as 1800 ± 500 M⁻¹ s⁻¹ (CCCC(=O)c1ccccc1; pH 8, 56 °C, apparent, added: isopropylamine 1 M, PLP 0.05 mM).
The kcat/Km of `B8 (enzyme N249W)` is reported as 1.17 M⁻¹ s⁻¹ (CC(C)(COP(=O)(O)OP(=O)(O)OC[C@H]1O[C@@H](n2cnc3c(N)ncnc32)[C@H](O)[C@@H]1OP(=O)(O)O)[C@@H](O)C(=O)NCCC(=O)NCCSC(=O)CC(=O)O; pH 7.4, 37 °C).
The kcat/Km of `Cj1427c (Campylobacter jejuni, UniProt Q0P8I7)` is reported as 10200 ± 800 M⁻¹ s⁻¹ (Nc1nc2c(ncn2[C@@H]2O[C@H](COP(=O)(O)OP(=O)(O)O[C@H]3O[C@H]([C@H](O)CO)[C@@H](O)[C@H](O)[C@@H]3O)[C@@H](O)[C@H]2O)c(=O)[nH]1; pH 7.4, 30 °C, apparent).

A few entries again:
The kcat/Km of `B8 (enzyme N249W)` is reported as 1.17 M⁻¹ s⁻¹ (CC(C)(COP(=O)(O)OP(=O)(O)OC[C@H]1O[C@@H](n2cnc3c(N)ncnc32)[C@H](O)[C@@H]1OP(=O)(O)O)[C@@H](O)C(=O)NCCC(=O)NCCSC(=O)CC(=O)O; pH 7.4, 37 °C).
